# Assay results gathered from unrelated publications.
SMILES,tested on,test,test system,setting,how to read,measurement,value
C=CC(=O)Nc1cccc(Cn2ncc3cnc(Nc4cnn(CCOC)c4)nc32)c1,ERN1 human,"binding, KINOMEscan",,100 nM,lower = stronger binding,percent of control,100%
CCN(C(=O)c1cc(F)ccc1Oc1nncnc1N1CCC2(C1)CN([C@H](CCCN(C)CCOC)C(C)C)C2)C(C)C,J82,cell growth or viability,,72 h,,GI50,> 10 µM
Cn1ncc2cc(-c3cncc(Cl)c3N3CCC4(CCNC4=O)CC3)ccc21,LS174T,"gene expression, microarray, item: RPSA mRNA",,"concentration not given, 24 h",reference: untreated cells,log2 fold change,2.55
CNS(=O)(=O)Nc1nccc(Cc2c(C)c3ccc(Oc4ncccc4F)cc3oc2=O)c1F,YH-13,"cell viability, CellTiter-Glo",,7 days,,IC50,> 1 µM
Cc1ncsc1-c1ccc(C(C)NC(=O)C2CC(O)CN2C(=O)C(NC(=O)CCCCCCCCCCN2CCCC(Nc3ncc(Cl)c(Nc4ccccc4S(=O)(=O)C(C)C)n3)C2)C(C)(C)C)cc1 (centres unmarked),22Rv1,"RNA-seq, item: ZNF566 mRNA",,concentration not given,reference: DMSO,log2 fold change,-1.14
Nc1ncc(-c2cc(-c3cnn(CC(F)(F)F)c3)ncc2F)nc1C(=O)NC1CNCC(F)C1 (centres unmarked),DMPK,KINOMEscan,,1 µM,reference: DMSO control,remaining binding,29%
CN1CCCNC(=O)c2cccc(c2)C(=O)NCCCN(C)CCCNc2cccc3c2C(=O)c2cccc(c2C3=O)NCCC1,SAS,"RNA-Seq, item: IWS1 mRNA",,"1 µM, 6 h",reference: untreated cells,log2 fold change,-0.65
COC1CN([C@H]2CC[C@H]([C@@]3(C)Oc4c(Cl)cc(C(=O)NCc5c(SC)cc(C)[nH]c5=O)c(C)c4O3)CC2)C1,,"RNA-seq, item: CAVIN1","human, whole blood","dose not given, 24 h",reference: pretreatment baseline,log2 fold change,4.27

# A few entries again:
SMILES,tested on,test,test system,setting,how to read,measurement,value
CN1CCCNC(=O)c2cccc(c2)C(=O)NCCCN(C)CCCNc2cccc3c2C(=O)c2cccc(c2C3=O)NCCC1,SAS,"RNA-Seq, item: IWS1 mRNA",,"1 µM, 6 h",reference: untreated cells,log2 fold change,-0.65
